Published values of several laboratories.
Numbered parts are unrelated; each lists some results of a single study.
UniProt P36897, sequence (whole entry, looked up): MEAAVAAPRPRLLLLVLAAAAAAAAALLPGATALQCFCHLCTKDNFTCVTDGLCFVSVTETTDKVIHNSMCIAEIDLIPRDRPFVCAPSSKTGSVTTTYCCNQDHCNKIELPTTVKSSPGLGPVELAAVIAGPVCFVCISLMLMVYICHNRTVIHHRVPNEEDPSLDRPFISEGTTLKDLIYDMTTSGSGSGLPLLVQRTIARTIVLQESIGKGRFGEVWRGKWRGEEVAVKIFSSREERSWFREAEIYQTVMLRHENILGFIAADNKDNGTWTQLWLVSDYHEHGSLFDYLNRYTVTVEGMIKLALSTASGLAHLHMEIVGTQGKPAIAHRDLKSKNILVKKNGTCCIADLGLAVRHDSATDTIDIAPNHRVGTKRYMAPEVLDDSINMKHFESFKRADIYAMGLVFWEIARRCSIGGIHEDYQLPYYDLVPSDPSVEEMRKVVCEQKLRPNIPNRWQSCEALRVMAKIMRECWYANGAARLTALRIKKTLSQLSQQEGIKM
UniProt O14578, sequence (whole entry, looked up): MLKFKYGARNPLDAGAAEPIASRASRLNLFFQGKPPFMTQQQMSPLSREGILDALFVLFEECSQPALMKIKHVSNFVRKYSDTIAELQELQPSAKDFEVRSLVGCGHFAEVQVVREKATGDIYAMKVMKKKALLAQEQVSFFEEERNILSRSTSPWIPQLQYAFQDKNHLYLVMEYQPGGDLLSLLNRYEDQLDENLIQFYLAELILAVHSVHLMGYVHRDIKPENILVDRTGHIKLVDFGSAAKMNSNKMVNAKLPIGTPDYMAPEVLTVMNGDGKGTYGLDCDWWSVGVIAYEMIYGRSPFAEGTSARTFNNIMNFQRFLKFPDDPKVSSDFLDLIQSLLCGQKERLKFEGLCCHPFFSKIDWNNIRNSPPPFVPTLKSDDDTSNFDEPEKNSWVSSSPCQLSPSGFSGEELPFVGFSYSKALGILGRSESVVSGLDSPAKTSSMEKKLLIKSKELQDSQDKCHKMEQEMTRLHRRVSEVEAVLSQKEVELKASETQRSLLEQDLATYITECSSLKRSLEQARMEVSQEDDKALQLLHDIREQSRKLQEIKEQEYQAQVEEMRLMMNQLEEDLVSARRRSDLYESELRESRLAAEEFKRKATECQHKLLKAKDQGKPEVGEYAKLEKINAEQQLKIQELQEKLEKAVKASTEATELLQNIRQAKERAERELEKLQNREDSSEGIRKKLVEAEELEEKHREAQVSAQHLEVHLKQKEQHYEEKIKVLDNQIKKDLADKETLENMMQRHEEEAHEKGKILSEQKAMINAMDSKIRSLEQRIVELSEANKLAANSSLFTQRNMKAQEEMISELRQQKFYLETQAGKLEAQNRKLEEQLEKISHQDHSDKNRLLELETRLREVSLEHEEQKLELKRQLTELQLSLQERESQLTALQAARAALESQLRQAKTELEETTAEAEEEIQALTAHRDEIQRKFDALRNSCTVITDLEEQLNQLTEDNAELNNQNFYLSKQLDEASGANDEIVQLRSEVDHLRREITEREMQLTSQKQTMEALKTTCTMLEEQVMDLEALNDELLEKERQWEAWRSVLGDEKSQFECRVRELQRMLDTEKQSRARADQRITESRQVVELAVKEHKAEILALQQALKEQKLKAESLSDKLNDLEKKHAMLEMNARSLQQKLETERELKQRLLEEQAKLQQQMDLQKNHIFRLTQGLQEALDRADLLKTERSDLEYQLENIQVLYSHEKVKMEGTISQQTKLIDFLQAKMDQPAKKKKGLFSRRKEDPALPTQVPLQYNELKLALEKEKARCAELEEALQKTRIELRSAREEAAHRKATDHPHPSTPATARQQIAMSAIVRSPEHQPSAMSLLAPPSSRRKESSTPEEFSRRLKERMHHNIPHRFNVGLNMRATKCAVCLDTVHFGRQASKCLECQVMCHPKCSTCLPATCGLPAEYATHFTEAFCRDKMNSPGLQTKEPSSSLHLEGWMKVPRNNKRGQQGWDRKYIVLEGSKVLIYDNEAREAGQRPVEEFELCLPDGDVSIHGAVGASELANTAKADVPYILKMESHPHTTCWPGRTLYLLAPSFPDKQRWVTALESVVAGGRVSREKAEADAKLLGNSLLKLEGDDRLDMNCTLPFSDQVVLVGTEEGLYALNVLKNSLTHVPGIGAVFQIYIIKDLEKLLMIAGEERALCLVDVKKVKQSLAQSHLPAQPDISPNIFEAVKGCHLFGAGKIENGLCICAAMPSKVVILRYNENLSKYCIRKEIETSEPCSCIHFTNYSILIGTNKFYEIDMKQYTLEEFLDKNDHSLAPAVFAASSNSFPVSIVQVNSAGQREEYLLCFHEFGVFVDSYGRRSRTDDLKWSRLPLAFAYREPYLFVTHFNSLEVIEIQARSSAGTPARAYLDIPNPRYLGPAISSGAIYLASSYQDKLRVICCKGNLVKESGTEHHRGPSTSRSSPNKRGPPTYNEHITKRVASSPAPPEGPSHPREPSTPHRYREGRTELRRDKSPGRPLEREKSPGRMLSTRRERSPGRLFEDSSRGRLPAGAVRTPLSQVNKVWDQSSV
UniProt Q14164, sequence (whole entry, looked up): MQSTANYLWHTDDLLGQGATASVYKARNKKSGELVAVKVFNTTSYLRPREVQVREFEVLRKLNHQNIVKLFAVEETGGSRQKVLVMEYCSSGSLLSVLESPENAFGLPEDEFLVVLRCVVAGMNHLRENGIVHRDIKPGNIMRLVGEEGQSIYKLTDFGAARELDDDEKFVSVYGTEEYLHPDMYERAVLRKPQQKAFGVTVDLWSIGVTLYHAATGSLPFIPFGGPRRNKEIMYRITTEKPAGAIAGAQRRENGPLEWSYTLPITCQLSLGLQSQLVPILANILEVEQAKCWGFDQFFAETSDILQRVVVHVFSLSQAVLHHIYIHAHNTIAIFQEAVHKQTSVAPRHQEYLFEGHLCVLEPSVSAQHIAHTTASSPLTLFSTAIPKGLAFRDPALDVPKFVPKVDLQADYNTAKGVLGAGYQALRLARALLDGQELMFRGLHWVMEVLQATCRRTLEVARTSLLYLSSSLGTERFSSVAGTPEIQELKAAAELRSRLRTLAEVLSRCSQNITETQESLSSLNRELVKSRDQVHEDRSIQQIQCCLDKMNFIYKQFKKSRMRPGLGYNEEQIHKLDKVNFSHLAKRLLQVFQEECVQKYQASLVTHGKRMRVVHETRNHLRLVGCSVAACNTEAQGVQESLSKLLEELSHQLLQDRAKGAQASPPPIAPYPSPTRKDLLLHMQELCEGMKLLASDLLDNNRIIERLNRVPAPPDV
UniProt Q96RR4, sequence (whole entry, looked up): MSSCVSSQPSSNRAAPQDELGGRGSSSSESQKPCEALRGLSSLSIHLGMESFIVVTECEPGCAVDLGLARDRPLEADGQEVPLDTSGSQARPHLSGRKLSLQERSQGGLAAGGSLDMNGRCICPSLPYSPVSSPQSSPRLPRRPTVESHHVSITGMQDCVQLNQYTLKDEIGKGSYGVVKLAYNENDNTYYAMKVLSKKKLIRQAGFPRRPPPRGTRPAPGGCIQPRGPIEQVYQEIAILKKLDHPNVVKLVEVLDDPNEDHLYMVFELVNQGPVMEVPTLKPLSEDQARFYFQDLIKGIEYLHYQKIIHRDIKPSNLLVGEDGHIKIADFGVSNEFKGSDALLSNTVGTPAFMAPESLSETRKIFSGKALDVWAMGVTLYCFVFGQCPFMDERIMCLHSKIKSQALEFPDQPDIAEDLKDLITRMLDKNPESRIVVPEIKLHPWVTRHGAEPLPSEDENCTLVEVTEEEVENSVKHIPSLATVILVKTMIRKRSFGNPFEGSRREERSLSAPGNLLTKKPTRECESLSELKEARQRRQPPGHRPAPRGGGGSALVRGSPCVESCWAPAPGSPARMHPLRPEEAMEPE
UniProt Q00535, sequence (whole entry, looked up): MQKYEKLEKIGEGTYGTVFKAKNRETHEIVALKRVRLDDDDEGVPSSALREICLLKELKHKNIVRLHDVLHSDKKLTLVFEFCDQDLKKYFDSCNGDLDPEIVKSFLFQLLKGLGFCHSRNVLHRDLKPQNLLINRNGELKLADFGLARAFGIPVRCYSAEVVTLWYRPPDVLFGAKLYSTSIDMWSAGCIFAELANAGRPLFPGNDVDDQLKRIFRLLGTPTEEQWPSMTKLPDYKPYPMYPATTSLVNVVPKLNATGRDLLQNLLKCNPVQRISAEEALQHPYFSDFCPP

Study 1 — species: human; sample: microsomes or S9; tested at: 2 µM; time: 0.5 h; quantity: remaining compound
O=C(NC(c1ccccc1)c1cccc2ccccc12)c1nc(=O)[nH][nH]1 (stereo not shown): 24.8%
Cc1ccc(S(=O)(=O)N(CC(=O)c2ccccc2)c2nc3nc(C)cc(C)n3n2)cc1: 88.1%
CC(=O)c1ccc(NC(=O)Cn2cnc3c(nnn3-c3ccc(C)cc3)c2=O)cc1: 95.9%

Study 2 — Structure (SMILES): O=C(CCCc1ccc(-c2ccccc2F)cc1)Nc1ccc(O)cc1; read-out: enzyme activity; action: inhibitor; tested at: 0.5 µM; relative to: control; quantity: remaining activity
TGFBR2 (Homo sapiens, UniProt P37173): 101%
GRK3 (Homo sapiens, UniProt P35626): 100%
MAPK9 (Homo sapiens, UniProt P45984): 106%
CAMKK2 (Homo sapiens, UniProt Q96RR4): 86.6%
TGFBR1 (Homo sapiens, UniProt P36897): 102%
Cyclin-dependent kinase 5, with p25 (CDK5, Homo sapiens, UniProt Q00535): 94.6%
PRKCA (Homo sapiens, UniProt P17252): 100%
IKBKE (Homo sapiens, UniProt Q14164): 98.2%

Study 3 — read-out: cell-free assay; method: competition with immobilised ligand; tested at: 1 µM; quantity: remaining binding
SMILES: NS(=O)(=O)c1cc(NC(=O)Cc2ccccc2)ccc1Oc1cccc(Cl)c1
SRMS (Homo sapiens, UniProt Q9H3Y6): 78%
EGFR (Homo sapiens, UniProt P00533, del752-759): 76%
FGFR2 (Homo sapiens, UniProt P21802): 61%
CIT (Homo sapiens, UniProt O14578): 100%

Other studies, line by line
PhoQ, residues 284 288 289 292 302 303 SNGLAW — fold induction (PhoP, residues 12 14 15 18 19 IFFTR (Escherichia coli, UniProt P23836); Sort-seq, measured: YFP reporter; E. coli; PhoQ-PhoP variant library, with: 10 µM Mg2+; relative to: high Mg2+ state, higher = stronger signaling): 2.01
